Results from different studies.
Protocols differ between the studies behind these lines. Several values in a cell are separate wells, animals, samples, runs or records. ± gives the spread as reported.

CC1=CC=c2ccc3c4c2[N]1[Re](=[C]=O)(=[C]=O)(=[C]=O)([C]#[N+]c1ccc(Cl)cc1)[N]4C(C)=CC=3.O=S(=O)([O-])C(F)(F)F  cathodic peak potential (cyclic voltammetry; acetonitrile; irreversible reduction): -1.29 V vs SCE
O=c1cc(-c2ccccc2)oc2c(Br)c(O)c(O)c(O)c12  Ctrough (C57BL/6 mouse, plasma; po, 150 mg/kg): 53.9 ± 54 ng/mL
CSCC[C@@H]1NC(=O)[C@@H]2CSSC[C@H](NC(=O)[C@H](CO)NC(=O)[C@H](C)N)C(=O)N[C@@H](CCCNC(=N)N)C(=O)N[C@@H]([C@@H](C)O)C(=O)N3CCC[C@H]3C(=O)N[C@@H](CCCCN)C(=O)N[C@@H](CC(=O)O)C(=O)N[C@H]3CSSC[C@H](NC(=O)[C@H](CCCCN)NC(=O)[C@H](CCCNC(=N)N)NC(=O)[C@H](CC(N)=O)NC1=O)C(=O)N[C@@H](CCCCN)C(=O)N[C@H]1CSSC[C@H](NC(=O)[C@@H]4CCCN4C(=O)[C@H](CC(=O)O)NC(=O)[C@H](C)NC3=O)C(=O)N[C@@H](C)C(=O)N[C@@H](CCCCN)C(=O)N[C@@H](CCC(=O)O)C(=O)N[C@@H]([C@@H](C)O)C(=O)NCC(=O)N[C@@H](CSSC[C@@H](C(N)=O)NC(=O)[C@H](CCCNC(=N)N)NC(=O)[C@H](CC(N)=O)NC1=O)C(=O)N1CCC[C@H]1C(=O)N[C@@H](Cc1ccc(O)cc1)C(=O)NCC(=O)N[C@@H](CCCCN)C(=O)N2  CO2 (DA rat pristane-induced arthritis, serum; subcutaneous, 0.1 mg/kg every other day, 21 days): 19.8 mmol/L
Cc1ccc(OCC(=O)N(Cc2cccs2)c2ccn[nH]2)cc1  corpora lutea count (Crl:CD(SD) rat, bred female; oral, 1000 mg/kg/day, mean per litter, developmental toxicity): 17.5
CC(C)[C@H](NC(=O)CNC(=O)[C@H](CCC(N)=O)NC(=O)[C@H](C)N)C(=O)O  subjects with serious adverse events (human; 30 mg/kg single dose): 0%
CC[C@H](C)C(=O)N1CCC(NC(=O)Nc2ccc(OC(F)(F)F)c(F)c2)CC1  Tmax (human, plasma; oral, 8 mg, single dose, fed): 8.25 h
CCN(Cc1ccccc1)C(=O)CCc1nc(CN2CCN(C(=O)Cc3ccc(OC)c(OC)c3)CC2)no1  concentration (rat, plasma; intravenous, 1 mg/kg, 2 h): < 0.25 ng/mL
N=C(N)NCc1ccc(C(=O)NCCCC[C@H](NC(=O)N[C@@H](CCC(=O)O)C(=O)O)C(=O)O)cc1[131I]  tissue uptake (SCID mouse, PC-3 xenografts, stomach; 1 h): 0.74 ± 0.16 %ID/g
CC[C@H](C)[C@@H]1NC(=O)[C@@H](NC(=O)CNC(=O)c2ccc(F)cc2)CSSC[C@@H]2NC(=O)[C@H](C)NC(=O)CNC(=O)[C@@H]3CCCN3C(=O)[C@@H]3CSSC[C@@H](C(=O)NCC(=O)O)NC(=O)[C@H](Cc4ccc(O)cc4)NC(=O)CNC(=O)[C@H](CC(N)=O)NC(=O)CNC(=O)[C@H](CCCNC(=N)N)NC(=O)[C@H](CSSC[C@H](NC(=O)[C@H](CCCNC(=N)N)NC(=O)[C@H](Cc4ccccc4)NC(=O)[C@H](CC(C)C)NC(=O)[C@H](CC(C)C)NC(=O)[C@H]([C@@H](C)O)NC(=O)CNC(=O)[C@H](CC(C)C)NC(=O)[C@H](CC(=O)O)NC(=O)[C@H]([C@@H](C)O)NC(=O)[C@H](CCCNC(=N)N)NC(=O)[C@H](CCSC)NC(=O)[C@H](CC(N)=O)NC(=O)[C@H](CC(C)C)NC1=O)C(=O)N[C@@H](CCCNC(=N)N)C(=O)N[C@@H](CCCNC(=N)N)C(=O)N[C@@H](CC(=O)O)C(=O)N[C@@H](CO)C(=O)N[C@@H](CC(=O)O)C(=O)N3)NC(=O)[C@H]([C@@H](C)CC)NC2=O [fluorine-18 labelled]  blood clearance half-life (dynamic PET; mouse, BXPC-3 xenograft, heart; intravenous): 1.6 min
COc1ccc(NC(=O)Cn2c(=O)c3ccccc3n(CC(=O)Nc3cc([125I])c(OC)cc3OC)c2=O)cc1  tracer uptake (rat, heart; intravenous, 5 min): 0.39 %ID/g
C[C@@H](CO)NC(=O)c1cc(-c2ccc(Cl)cc2)nn(-c2cnn(C)c2)c1=O  body weight (C57BL/6-Ly5.1 mice, B16F10-OVA melanoma; oral, 30 mg/kg once daily): not toxic
CN[C@](C)(C[18F])C(=O)O  tissue uptake (SCID mouse MDA-MB-468 xenograft, brain; 60 min, post injection): 0.2 ± 0.04 %ID/g
CC[C@H](C)[C@H](NC(=O)[C@H](CC(=O)O)NC(=O)[C@H](CO)NC(=O)[C@H](CCC(N)=O)NC(=O)[C@H](C)NC(=O)[C@H](CC(=O)O)NC(=O)[C@H](CCC(=O)O)NC(=O)[C@H](Cc1c[nH]cn1)NC(=O)[C@H](Cc1ccc(O)cc1)NC(=O)[C@H](C)NC(=O)[C@H](CC(=O)O)NC(=O)[C@H](CCC(=O)O)NC(=O)[C@H](Cc1c[nH]cn1)NC(=O)[C@H](Cc1ccc(O)cc1)NC(=O)[C@H](C)NC(=O)[C@H](CC(=O)O)NC(=O)[C@H](CCC(=O)O)NC(=O)[C@H](Cc1c[nH]cn1)NC(=O)[C@H](Cc1ccc(O)cc1)NC(=O)[C@H](C)NC(=O)[C@H](CC(=O)O)NC(=O)[C@H](CCC(=O)O)NC(=O)[C@H](Cc1c[nH]cn1)NC(=O)[C@H](Cc1ccc(O)cc1)NC(=O)[C@H](C)NC(=O)[C@H](CC(=O)O)NC(=O)[C@H](CCC(=O)O)NC(=O)[C@H](Cc1c[nH]cn1)NC(=O)[C@@H](N)Cc1ccc(O)cc1)C(=O)N[C@H](C(=O)N[C@@H](C)C(=O)N[C@@H](Cc1c[nH]cn1)C(=O)N[C@@H](CC(C)C)C(=O)N[C@@H](CC(C)C)C(=O)O)C(C)C  BA share of white cells (normal mouse, blood; dose not given): 2.2 ± 0.5%
CC[C@H](C)[C@@H]1NC(=O)[C@H](CCCCN)NC(=O)[C@@H](NC(=O)[C@H](C)NC(=O)[C@@H](NC(=O)[C@H](CC(C)C)NC(=O)[C@H](CC(N)=O)NC(=O)[C@@H](NC(=O)CNC(=O)[C@H](CC(C)C)NC(=O)[C@H](CCCNC(=N)N)NC(=O)[C@H](C)NC(=O)[C@H](CC(C)C)NC(=O)[C@H](CC(=O)O)NC(=O)[C@H](CCCCN)NC(=O)CNC(=O)[C@H](CC(C)C)NC(=O)CNC(=O)[C@H](CCCCN)NC(=O)[C@H](CO)NC(=O)[C@H](C)NC(=O)[C@H](Cc2ccccc2)NC(=O)[C@H](CCCCN)NC(=O)[C@H](C)NC(=O)[C@@H](NC(=O)CNC(=O)[C@H](CCCNC(=N)N)NC(=O)[C@H](Cc2ccccc2)NC(=O)[C@@H](NC(=O)[C@H](CO)NC(=O)[C@H](CO)NC(=O)[C@H](Cc2ccccc2)NC(=O)CN)[C@@H](C)CC)C(C)C)C(C)C)C(C)C)CSSC[C@@H](C(=O)O)NC(=O)[C@H](CCC(N)=O)NC(=O)[C@H](CCCCN)NC(=O)[C@H](CO)NC1=O  haemolysis (horse erythrocytes; above 16 µM): ~16.2%
CCCC[C@H]1C(=O)N(C)[C@@H](CCCC)C(=O)N[C@@H](CCCNC(=O)CN2CCN(CC(=O)O)CCN(CC(=O)O)CCN(CC(=O)O)CC2)C(=O)N[C@H](C(=O)NCC(N)=O)CSCC(=O)N[C@@H](Cc2ccc(O)cc2)C(=O)N(C)[C@@H](C)C(=O)N[C@@H](CC(N)=O)C(=O)N2CCC[C@H]2C(=O)N[C@@H](Cc2c[nH]cn2)C(=O)N[C@@H](CC(C)C)C(=O)N(C)CC(=O)N[C@@H](Cc2c[nH]c3ccccc23)C(=O)N[C@@H](CO)C(=O)N[C@@H](Cc2c[nH]c3ccccc23)C(=O)N1C [gallium-68 labelled]  tumour uptake (biodistribution; NOD/SCID mice, CHO xenograft, CHO tumour, PD-L1-negative; 60 min post injection): 3 ± 0.96 %ID/g
CN(C)C(CNC(=O)Nc1cc(C(F)(F)F)ccc1N1CCOCC1)c1ccncc1 (stereo not drawn)  serum total bilirubin (mouse, serum; intraperitoneal, 360 mg/kg single dose): 0.4 mg/dL
CC[C@H](C)[C@H](NC(=O)[C@@H](CCCCN)NC(=O)[C@@H](CCCCN)NC(=O)[C@H](Cc1ccccc1)NC(=O)[C@H](CC(C)C)NC(=O)[C@@H](CCCCN)NC(=O)[C@H](Cc1c[nH]c2ccccc12)NC(=O)[C@H](CCCCN)NC(C)=O)C(=O)NCC(=O)N[C@@H](C)C(=O)N[C@H](C(=O)N[C@@H](CC(C)C)C(=O)N[C@H](CCCCN)C(=O)N[C@H](CCCCN)C(=O)N[C@@H](CC(C)C)C(N)=O)C(C)C  hemolysis (human red blood cells; up to 64 µM, 1 h, 5% red blood cells): < 5%
COc1cc(NC(=O)C(=O)c2c(C)n(Cc3ccc(Cl)cc3)c3ccc(C)cc23)ccn1  Vc (cynomolgus monkey, male, plasma; intravenous, 1 mg/kg): 0.48 L/kg and 0.344 L/kg and 0.606 L/kg and 0.453 L/kg and 0.455 L/kg and 0.385 L/kg

A few entries again:
O=c1cc(-c2ccccc2)oc2c(Br)c(O)c(O)c(O)c12  Ctrough (C57BL/6 mouse, plasma; po, 150 mg/kg): 53.9 ± 54 ng/mL
CSCC[C@@H]1NC(=O)[C@@H]2CSSC[C@H](NC(=O)[C@H](CO)NC(=O)[C@H](C)N)C(=O)N[C@@H](CCCNC(=N)N)C(=O)N[C@@H]([C@@H](C)O)C(=O)N3CCC[C@H]3C(=O)N[C@@H](CCCCN)C(=O)N[C@@H](CC(=O)O)C(=O)N[C@H]3CSSC[C@H](NC(=O)[C@H](CCCCN)NC(=O)[C@H](CCCNC(=N)N)NC(=O)[C@H](CC(N)=O)NC1=O)C(=O)N[C@@H](CCCCN)C(=O)N[C@H]1CSSC[C@H](NC(=O)[C@@H]4CCCN4C(=O)[C@H](CC(=O)O)NC(=O)[C@H](C)NC3=O)C(=O)N[C@@H](C)C(=O)N[C@@H](CCCCN)C(=O)N[C@@H](CCC(=O)O)C(=O)N[C@@H]([C@@H](C)O)C(=O)NCC(=O)N[C@@H](CSSC[C@@H](C(N)=O)NC(=O)[C@H](CCCNC(=N)N)NC(=O)[C@H](CC(N)=O)NC1=O)C(=O)N1CCC[C@H]1C(=O)N[C@@H](Cc1ccc(O)cc1)C(=O)NCC(=O)N[C@@H](CCCCN)C(=O)N2  CO2 (DA rat pristane-induced arthritis, serum; subcutaneous, 0.1 mg/kg every other day, 21 days): 19.8 mmol/L
Cc1ccc(OCC(=O)N(Cc2cccs2)c2ccn[nH]2)cc1  corpora lutea count (Crl:CD(SD) rat, bred female; oral, 1000 mg/kg/day, mean per litter, developmental toxicity): 17.5
